Results from different studies.
Compare with care: the assays were run in different laboratories.

`CC(=C(c1ccc(O)cc1)c1ccc(Cl)cc1)c1ccc(Cl)cc1` gave a GI50 of 2510 nM (NCI-60 cell lines; NCI five-dose screen; mean over 60 lines).
For `COc1cccc2c(NCc3ccccc3)nc(NCc3cccs3)nc12`, the GI50 was 820 nM (HCT-15; cell growth or viability; 24 h).
With `CC[C@H](C)[C@@H]([C@@H](CC(=O)N1C[C@@H](N=[N+]=[N-])C[C@H]1[C@H](OC)[C@@H](C)C(=O)N[C@@H](Cc1ccccc1)C(=O)OC)OC)N(C)C(=O)[C@@H](NC(=O)[C@@H](NC)C(C)C)C(C)C` the GI50 was 1.9 nM (SW780; cell growth or viability, resazurin).
With `COC1CN([C@H]2CC[C@H]([C@@]3(C)Oc4c(Cl)cc(C(=O)NCc5c(SC)cc(C)[nH]c5=O)c(C)c4O3)CC2)C1` the GI50 was over 1000 nM (JMSU-1; cell growth or viability, ATP luminescence; 12 days).
With `CC[C@H](C)[C@@H]([C@@H](CC(=O)N1C[C@@H](N=[N+]=[N-])C[C@H]1[C@H](OC)[C@@H](C)C(=O)N[C@@H](Cc1ccccc1)C(=O)OC)OC)N(C)C(=O)[C@@H](NC(=O)[C@H](C(C)C)N(C)C)[C@H](C)N=[N+]=[N-]` the GI50 was 0.365 nM (SW780; cell growth or viability, resazurin).
With `COc1cccc2c(NCc3ccccc3)nc(Nc3cccc(F)c3)nc12` the GI50 was 3700 nM (HCT-15; cell growth or viability; 72 h).
`CC[C@H](C)[C@@H]([C@@H](CC(=O)N1C[C@@H](N=[N+]=[N-])C[C@H]1[C@H](OC)[C@@H](C)C(=O)N[C@@H](Cc1ccccc1)C(=O)OC)OC)N(C)C(=O)[C@@H](NC(=O)[C@@H](NC)C(C)C)[C@H](C)N=[N+]=[N-]` gave a GI50 of 2.4 nM (SW780; cell growth or viability, resazurin).
The GI50 of `CC(=O)O[C@H]1C2=C(C(=O)C(O)=C(C(C)C)C2=O)[C@@]2(C)CCCC(C)(C)[C@@H]2[C@@H]1O` is reported as 8600 nM (MCR5; cell growth or viability, MTT; 72 h).
With `Nc1nc2cc(CC[C@H]3C[C@@H](n4ccc5c(N)ncnc54)[C@H](O)[C@@H]3O)ccc2cc1Br` the GI50 was over 1000 nM (DMS-53; cell growth or viability, MTT; 6 days).
For `Nc1ncc(-c2cnn(C3CCNCC3)c2)cc1-c1nc2ccc(O)cc2o1`, the GI50 was 2690 nM (HEL 92.1.7; cell growth or viability; 72 h).
For `CC(Cc1ccc(Cl)cc1)=C(c1ccc(Cl)cc1)c1ccc(OCCN(C)C)cc1`, the GI50 was 3720 nM (U-251; cell growth or viability, SRB).
With `Cc1nc(F)ccc1-c1cc(Cn2ccn(C)c2=N)cc(C(=O)NCc2ccc(Cl)c(Cl)c2)c1` the GI50 was 2000 nM (MV4-11 scrambled shRNA; cell proliferation; 72 h).
With `CCC(=C(c1ccc(Cl)cc1)c1ccc(OCCCN(C)C)cc1)c1ccc(OC)cc1` the GI50 was 3090 nM (NCI-60 cell lines; NCI five-dose screen; median over 60 lines).
`C1=[N+]2CCCC[N+]3=Cc4ccc5[n]4[Au-]23[n]2c1ccc2-c1nc2ccccc2nc1-5.F[P-](F)(F)(F)(F)F` gave a GI50 of 1000 nM (NCI60 leukemia cell lines; mean of cell lines).
